{"data": "Assay results gathered from unrelated publications", "note": "A part holds a random share of what one study measured.", "chain of UniProt P50750 (whole entry, looked up)": "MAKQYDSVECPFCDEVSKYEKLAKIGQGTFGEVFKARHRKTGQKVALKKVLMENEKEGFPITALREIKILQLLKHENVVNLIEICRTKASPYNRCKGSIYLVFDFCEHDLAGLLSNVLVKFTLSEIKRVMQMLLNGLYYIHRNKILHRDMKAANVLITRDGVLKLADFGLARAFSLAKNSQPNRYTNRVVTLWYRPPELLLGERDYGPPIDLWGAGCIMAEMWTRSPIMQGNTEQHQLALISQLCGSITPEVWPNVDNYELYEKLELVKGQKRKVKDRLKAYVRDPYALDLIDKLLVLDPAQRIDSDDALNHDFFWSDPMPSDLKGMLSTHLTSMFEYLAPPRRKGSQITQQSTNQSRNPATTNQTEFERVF", "chain of UniProt P35968 (whole entry, looked up)": "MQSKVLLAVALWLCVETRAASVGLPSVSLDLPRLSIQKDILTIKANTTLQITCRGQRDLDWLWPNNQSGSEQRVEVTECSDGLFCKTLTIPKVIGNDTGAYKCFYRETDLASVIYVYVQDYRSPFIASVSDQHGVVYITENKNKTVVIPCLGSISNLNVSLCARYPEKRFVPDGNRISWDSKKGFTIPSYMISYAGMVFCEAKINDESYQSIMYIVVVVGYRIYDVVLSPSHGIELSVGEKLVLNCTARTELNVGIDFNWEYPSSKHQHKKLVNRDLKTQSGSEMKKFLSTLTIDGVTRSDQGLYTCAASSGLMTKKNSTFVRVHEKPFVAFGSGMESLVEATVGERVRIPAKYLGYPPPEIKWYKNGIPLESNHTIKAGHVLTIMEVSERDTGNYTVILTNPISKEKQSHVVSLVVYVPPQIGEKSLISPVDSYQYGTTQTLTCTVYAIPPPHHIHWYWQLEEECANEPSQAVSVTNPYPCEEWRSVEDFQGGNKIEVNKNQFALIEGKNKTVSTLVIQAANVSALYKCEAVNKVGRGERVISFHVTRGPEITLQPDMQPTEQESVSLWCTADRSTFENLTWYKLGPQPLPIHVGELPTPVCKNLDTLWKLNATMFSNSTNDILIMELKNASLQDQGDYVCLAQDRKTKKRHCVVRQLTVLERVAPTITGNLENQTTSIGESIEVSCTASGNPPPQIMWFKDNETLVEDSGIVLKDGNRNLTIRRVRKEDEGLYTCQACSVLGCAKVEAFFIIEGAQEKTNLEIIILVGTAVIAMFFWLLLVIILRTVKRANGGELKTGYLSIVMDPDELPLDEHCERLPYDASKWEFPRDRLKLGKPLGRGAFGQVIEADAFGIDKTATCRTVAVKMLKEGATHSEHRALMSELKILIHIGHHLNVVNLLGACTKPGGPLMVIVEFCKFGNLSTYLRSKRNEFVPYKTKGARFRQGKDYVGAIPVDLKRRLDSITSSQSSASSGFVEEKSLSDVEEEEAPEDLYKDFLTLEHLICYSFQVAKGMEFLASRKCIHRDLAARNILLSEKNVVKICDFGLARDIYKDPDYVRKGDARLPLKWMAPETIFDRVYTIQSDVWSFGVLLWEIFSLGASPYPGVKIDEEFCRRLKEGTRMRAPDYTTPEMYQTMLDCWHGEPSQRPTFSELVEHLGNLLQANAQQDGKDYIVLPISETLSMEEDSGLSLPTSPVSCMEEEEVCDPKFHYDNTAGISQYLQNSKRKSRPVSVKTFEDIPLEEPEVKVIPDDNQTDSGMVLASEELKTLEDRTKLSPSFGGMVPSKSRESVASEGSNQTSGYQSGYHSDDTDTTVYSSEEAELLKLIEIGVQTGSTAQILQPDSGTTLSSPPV", "chain of UniProt Q15835 (whole entry, looked up)": "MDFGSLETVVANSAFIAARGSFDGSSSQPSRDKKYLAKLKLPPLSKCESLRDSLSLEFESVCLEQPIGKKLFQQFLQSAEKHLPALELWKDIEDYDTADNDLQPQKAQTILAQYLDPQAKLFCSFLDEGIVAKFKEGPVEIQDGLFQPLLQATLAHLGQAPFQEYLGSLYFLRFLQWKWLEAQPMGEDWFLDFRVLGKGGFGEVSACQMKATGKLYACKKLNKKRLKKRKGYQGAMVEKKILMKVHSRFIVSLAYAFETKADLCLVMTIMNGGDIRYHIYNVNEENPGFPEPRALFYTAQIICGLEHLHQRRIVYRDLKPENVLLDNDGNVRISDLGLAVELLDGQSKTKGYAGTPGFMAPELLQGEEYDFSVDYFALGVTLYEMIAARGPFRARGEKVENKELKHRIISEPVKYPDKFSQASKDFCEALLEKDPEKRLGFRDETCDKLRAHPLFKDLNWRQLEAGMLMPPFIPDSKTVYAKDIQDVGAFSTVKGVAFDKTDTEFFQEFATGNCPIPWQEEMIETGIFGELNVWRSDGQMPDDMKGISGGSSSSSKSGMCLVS", "chain of UniProt Q16539 (whole entry, looked up)": "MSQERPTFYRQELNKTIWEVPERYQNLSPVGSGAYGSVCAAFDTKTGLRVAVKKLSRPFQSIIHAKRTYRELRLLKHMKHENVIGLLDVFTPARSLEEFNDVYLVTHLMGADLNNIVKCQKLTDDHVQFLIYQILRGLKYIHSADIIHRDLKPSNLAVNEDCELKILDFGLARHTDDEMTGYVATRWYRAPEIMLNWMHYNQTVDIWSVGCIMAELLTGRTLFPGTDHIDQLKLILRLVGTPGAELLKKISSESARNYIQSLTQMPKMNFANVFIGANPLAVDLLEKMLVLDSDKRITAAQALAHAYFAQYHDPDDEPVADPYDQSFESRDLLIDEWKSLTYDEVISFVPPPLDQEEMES", "chain of UniProt Q9HC98 (whole entry, looked up)": "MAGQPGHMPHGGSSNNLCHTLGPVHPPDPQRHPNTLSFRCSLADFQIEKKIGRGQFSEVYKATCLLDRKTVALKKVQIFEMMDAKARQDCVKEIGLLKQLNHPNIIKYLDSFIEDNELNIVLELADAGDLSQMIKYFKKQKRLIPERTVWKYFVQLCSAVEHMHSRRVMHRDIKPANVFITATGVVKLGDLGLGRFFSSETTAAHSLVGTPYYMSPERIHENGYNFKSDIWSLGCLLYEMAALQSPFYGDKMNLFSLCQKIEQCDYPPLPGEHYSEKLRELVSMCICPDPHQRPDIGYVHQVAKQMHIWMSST", "chain of UniProt O75914 (whole entry, looked up)": "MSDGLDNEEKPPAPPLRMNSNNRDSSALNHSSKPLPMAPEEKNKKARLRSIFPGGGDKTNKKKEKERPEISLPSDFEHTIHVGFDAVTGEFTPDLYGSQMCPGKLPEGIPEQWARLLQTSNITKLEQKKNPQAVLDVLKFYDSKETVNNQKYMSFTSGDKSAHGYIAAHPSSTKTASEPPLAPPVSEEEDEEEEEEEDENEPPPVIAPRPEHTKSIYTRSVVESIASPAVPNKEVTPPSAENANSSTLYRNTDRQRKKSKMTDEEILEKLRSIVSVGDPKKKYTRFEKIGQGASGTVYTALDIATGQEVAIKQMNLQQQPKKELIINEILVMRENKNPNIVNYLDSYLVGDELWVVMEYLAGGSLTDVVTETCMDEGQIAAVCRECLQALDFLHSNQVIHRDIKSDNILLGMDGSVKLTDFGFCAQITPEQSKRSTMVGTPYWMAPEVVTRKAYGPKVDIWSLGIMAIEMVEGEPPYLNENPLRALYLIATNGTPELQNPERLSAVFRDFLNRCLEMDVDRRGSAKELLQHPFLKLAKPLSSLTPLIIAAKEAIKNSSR", "chain of UniProt P49840 (whole entry, looked up)": "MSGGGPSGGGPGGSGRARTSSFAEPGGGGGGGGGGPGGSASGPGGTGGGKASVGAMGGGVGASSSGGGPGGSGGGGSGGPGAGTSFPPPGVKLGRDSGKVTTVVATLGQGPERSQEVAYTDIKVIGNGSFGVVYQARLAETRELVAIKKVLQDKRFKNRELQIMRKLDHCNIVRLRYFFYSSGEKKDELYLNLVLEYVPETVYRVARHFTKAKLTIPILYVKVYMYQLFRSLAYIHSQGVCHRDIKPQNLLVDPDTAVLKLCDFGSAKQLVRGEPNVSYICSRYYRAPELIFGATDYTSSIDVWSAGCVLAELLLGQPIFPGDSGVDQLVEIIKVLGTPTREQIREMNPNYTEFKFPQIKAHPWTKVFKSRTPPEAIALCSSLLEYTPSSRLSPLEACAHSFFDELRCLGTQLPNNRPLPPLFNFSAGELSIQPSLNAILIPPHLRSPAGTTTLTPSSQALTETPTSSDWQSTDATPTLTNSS"}
{"data": "Series 1", "SMILES": "COc1ccc2[nH]c3c4[nH]c5ccc(OC)cc5c4c4c(c3c2c1)C(=O)NC4=O", "method": "competitive binding panel", "tested at": "1 µM", "reference": "vehicle"}
{"target": "Receptor-interacting serine/threonine-protein kinase 2 (RIPK2, Homo sapiens, UniProt O43353)", "remaining binding": "60%"}
{"target": "Myosin light chain kinase, smooth muscle (MYLK, Homo sapiens, UniProt Q15746)", "remaining binding": "6.9%"}
{"target": "Serine/threonine-protein kinase LATS1 (LATS1, Homo sapiens, UniProt O95835)", "remaining binding": "100%"}
{"target": "Platelet-derived growth factor receptor alpha (PDGFRA, Homo sapiens, UniProt P16234)", "remaining binding": "11%"}
{"target": "Cyclin-dependent kinase 9 (CDK9, Homo sapiens, UniProt P50750)", "remaining binding": "58%"}
{"data": "Series 2", "SMILES": "CC(=O)O/N=C1/C(c2c(O)[nH]c3cc(Br)ccc23)=Nc2ccccc21", "read-out": "enzyme activity", "mode": "inhibitor", "tested at": "0.5 µM", "reference": "control"}
{"target": "Dual specificity mitogen-activated protein kinase kinase 1 (MAP2K1, Homo sapiens, UniProt Q02750)", "remaining activity [%]": 84.9}
{"target": "Serine/threonine-protein kinase DCLK2 (DCLK2, Homo sapiens, UniProt Q8N568)", "remaining activity [%]": 90.2}
{"target": "Serine/threonine-protein kinase PLK3 (PLK3, Homo sapiens, UniProt Q9H4B4)", "remaining activity [%]": 96.2}
{"target": "MAP/microtubule affinity-regulating kinase 4 (MARK4, Homo sapiens, UniProt Q96L34)", "remaining activity [%]": 77.6}
{"target": "Serine/threonine-protein kinase PAK 3 (PAK3, Homo sapiens, UniProt O75914)", "remaining activity [%]": 99.1}
{"target": "Vascular endothelial growth factor receptor 2 (KDR, Homo sapiens, UniProt P35968)", "remaining activity [%]": 74.2}
{"target": "RAC-beta serine/threonine-protein kinase (AKT2, Homo sapiens, UniProt P31751)", "remaining activity [%]": 113}
{"target": "Cyclin-dependent kinase 9, with cyclin K (CDK9, Homo sapiens, UniProt P50750)", "remaining activity [%]": 64.3}
{"target": "cGMP-dependent protein kinase 2 (PRKG2, Homo sapiens, UniProt Q13237)", "remaining activity [%]": 91.4}
{"target": "Serine/threonine-protein kinase MRCK beta (CDC42BPB, Homo sapiens, UniProt Q9Y5S2)", "remaining activity [%]": 94.7}
{"target": "Mitogen-activated protein kinase 14 (MAPK14, Homo sapiens, UniProt Q16539)", "remaining activity [%]": 99.2}
{"target": "Serine/threonine-protein kinase MARK2 (MARK2, Homo sapiens, UniProt Q7KZI7)", "remaining activity [%]": 74.9}
{"target": "Hepatocyte growth factor receptor (MET, Homo sapiens, UniProt P08581)", "remaining activity [%]": 98.2}
{"target": "G protein-coupled receptor kinase 4 (GRK4, Homo sapiens, UniProt P32298)", "remaining activity [%]": 97.6}
{"data": "Series 3", "target": "CRBN/Zinc finger protein Helios (Homo sapiens, UniProt Q96SW2+Q9UKS7)", "mode": "degrader", "method": "HiBiT", "cell line": "HEK293", "tested at": "4.572 nM", "chain of UniProt Q9UKS7 (whole entry, looked up)": "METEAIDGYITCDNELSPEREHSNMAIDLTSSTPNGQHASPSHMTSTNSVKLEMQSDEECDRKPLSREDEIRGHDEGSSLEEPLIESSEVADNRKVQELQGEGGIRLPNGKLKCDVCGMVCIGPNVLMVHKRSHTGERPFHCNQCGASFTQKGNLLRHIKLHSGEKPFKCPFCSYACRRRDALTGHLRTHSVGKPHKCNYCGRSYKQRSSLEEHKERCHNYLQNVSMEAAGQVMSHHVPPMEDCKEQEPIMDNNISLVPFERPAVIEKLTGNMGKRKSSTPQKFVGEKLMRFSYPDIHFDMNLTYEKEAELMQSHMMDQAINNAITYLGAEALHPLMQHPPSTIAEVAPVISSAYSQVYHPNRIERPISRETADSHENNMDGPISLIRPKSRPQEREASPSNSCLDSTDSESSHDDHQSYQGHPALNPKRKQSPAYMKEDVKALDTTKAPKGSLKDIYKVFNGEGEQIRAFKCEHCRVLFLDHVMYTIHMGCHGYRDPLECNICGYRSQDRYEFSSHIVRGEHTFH", "chain of UniProt Q96SW2 (whole entry, looked up)": "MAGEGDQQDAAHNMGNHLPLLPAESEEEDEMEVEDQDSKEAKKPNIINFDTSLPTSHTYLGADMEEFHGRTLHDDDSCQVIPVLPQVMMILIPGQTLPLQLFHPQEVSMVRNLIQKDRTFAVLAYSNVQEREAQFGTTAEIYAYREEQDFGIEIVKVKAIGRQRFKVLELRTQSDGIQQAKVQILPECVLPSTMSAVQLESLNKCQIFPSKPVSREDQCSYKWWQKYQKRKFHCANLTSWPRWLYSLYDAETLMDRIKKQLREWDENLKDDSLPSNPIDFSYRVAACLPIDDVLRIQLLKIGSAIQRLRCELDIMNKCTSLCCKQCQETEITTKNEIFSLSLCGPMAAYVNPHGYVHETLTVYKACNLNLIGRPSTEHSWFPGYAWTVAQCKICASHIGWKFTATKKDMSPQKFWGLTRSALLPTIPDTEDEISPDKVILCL"}
{"SMILES": "O=C1CCC(N2Cc3c(ccc4c3OCC43CCC(Cc4ccccc4)CC3)C2=O)C(=O)N1 (stereo not shown)", "protein remaining [%]": 104}
{"SMILES": "O=C1CCC(N2Cc3c(ccc4c3OCCC43CCN(Cc4ccccc4)CC3)C2=O)C(=O)N1 (stereo not shown)", "protein remaining [%]": 80.5}
{"SMILES": "O=C1CCC(N2Cc3c(ccc4c3OCC43CCC(Oc4ccccc4)CC3)C2=O)C(=O)N1 (stereo not shown)", "protein remaining [%]": 94.6}
{"data": "Series 4", "SMILES": "c1ccc(N2CCN(Cc3nc4ccccc4[nH]3)CC2)nc1", "tested at": "1 µM"}
{"target": "Casein kinase II subunit alpha (CSNK2A1, Homo sapiens, UniProt P68400)", "read-out": "cell-free assay", "method": "competition with immobilised ligand", "remaining binding [%]": 97}
{"target": "Tyrosine-protein kinase ABL1, phosphorylated (ABL1, Homo sapiens, UniProt P00519, F317I)", "read-out": "binding", "remaining binding [%]": 100}
{"target": "Glycogen synthase kinase-3 alpha (GSK3A, Homo sapiens, UniProt P49840)", "read-out": "cell-free assay", "method": "competition with immobilised ligand", "remaining binding [%]": 66}
{"target": "Maternal embryonic leucine zipper kinase (MELK, Homo sapiens, UniProt Q14680)", "read-out": "binding", "method": "competition with immobilised ligand", "remaining binding [%]": 100}
{"target": "Tyrosine-protein kinase SYK (SYK, Homo sapiens, UniProt P43405)", "read-out": "cell-free assay", "method": "competition with immobilised ligand", "remaining binding [%]": 100}
{"target": "Serine/threonine-protein kinase Nek6 (NEK6, Homo sapiens, UniProt Q9HC98)", "read-out": "binding", "method": "competition with immobilised ligand", "remaining binding [%]": 100}
{"target": "Non-receptor tyrosine-protein kinase TYK2, JH1 (TYK2, Homo sapiens, UniProt P29597)", "read-out": "binding", "method": "competition with immobilised ligand", "remaining binding [%]": 100}
{"target": "Tyrosine-protein kinase Fes/Fps (FES, Homo sapiens, UniProt P07332)", "read-out": "cell-free assay", "method": "competition with immobilised ligand", "remaining binding [%]": 100}
{"target": "Rhodopsin kinase GRK1 (GRK1, Homo sapiens, UniProt Q15835)", "read-out": "binding", "method": "competition with immobilised ligand", "remaining binding [%]": 92}
{"note": "Excerpt of the above (series 4):"}
{"target": "Tyrosine-protein kinase SYK (SYK, Homo sapiens, UniProt P43405)", "read-out": "cell-free assay", "method": "competition with immobilised ligand", "remaining binding [%]": 100}
{"target": "Serine/threonine-protein kinase Nek6 (NEK6, Homo sapiens, UniProt Q9HC98)", "read-out": "binding", "method": "competition with immobilised ligand", "remaining binding [%]": 100}
